Experimental data gathered from unrelated publications.
Every numbered part comes from another study and shows a few of its results, in no order.

Sample 1
Target: Histone acetyltransferase KAT6A, winged helix 1, GST fusion (KAT6A, Homo sapiens, UniProt Q92794, residues 1-85)
Method: protein binding microarray
Form: double-stranded DNA, one strand shown
Sample: in vitro
Tested at: not given
Notes: 8-mer, flanks averaged, mean of 2 arrays, mostly near background
Baseline: not given
Reading: higher = stronger binding
Residues (chain): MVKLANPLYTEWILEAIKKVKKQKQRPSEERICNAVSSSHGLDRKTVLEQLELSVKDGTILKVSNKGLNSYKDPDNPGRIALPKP
`ACAAATTC` gave an E-score of -0.138.
The E-score of `AGTCCTTG` is reported as -0.219.
`CTCTGACA` has an E-score of -0.121.
`CGCTTCCC` gave an E-score of 0.391.

Sample 2
Target: Sal-like protein 4, full length isoform B (SALL4, Homo sapiens, UniProt Q9UJQ4-2, residues 1-616)
Method: universal PBM
Form: double-stranded DNA, one strand shown
Sample: in vitro
Tested at: not given
Notes: 8-mer, flanks averaged, mean of replicates
Reading: higher = stronger binding
Target sequence (chain): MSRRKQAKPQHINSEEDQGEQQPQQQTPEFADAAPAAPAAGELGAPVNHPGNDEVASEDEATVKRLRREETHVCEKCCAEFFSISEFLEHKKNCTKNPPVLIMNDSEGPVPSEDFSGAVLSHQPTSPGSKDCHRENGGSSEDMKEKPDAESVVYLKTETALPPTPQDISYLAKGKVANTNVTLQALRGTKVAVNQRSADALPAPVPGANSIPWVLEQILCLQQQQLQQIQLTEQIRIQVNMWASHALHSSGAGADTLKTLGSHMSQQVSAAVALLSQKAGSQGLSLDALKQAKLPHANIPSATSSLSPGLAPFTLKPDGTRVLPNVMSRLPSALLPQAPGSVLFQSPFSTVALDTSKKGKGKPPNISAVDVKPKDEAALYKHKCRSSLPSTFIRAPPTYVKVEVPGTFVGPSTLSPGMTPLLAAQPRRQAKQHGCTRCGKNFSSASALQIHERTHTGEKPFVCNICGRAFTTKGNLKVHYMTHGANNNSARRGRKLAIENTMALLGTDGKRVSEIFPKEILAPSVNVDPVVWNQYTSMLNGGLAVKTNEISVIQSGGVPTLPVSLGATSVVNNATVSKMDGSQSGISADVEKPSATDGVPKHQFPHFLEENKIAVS
The E-score of `TAGAACTA` is reported as 0.0762.
With `CAAATACG` the E-score was 0.00102.
The E-score of `TACCATCA` is reported as 0.0331.
`CCTCGAGG` gave an E-score of -0.192.

Sample 3
Target: Centromere-binding protein 1, full length, N-terminal tag (CBF1, Saccharomyces cerevisiae, UniProt P17106, residues 1-351)
Sequence of UniProt P17106 (whole entry, looked up): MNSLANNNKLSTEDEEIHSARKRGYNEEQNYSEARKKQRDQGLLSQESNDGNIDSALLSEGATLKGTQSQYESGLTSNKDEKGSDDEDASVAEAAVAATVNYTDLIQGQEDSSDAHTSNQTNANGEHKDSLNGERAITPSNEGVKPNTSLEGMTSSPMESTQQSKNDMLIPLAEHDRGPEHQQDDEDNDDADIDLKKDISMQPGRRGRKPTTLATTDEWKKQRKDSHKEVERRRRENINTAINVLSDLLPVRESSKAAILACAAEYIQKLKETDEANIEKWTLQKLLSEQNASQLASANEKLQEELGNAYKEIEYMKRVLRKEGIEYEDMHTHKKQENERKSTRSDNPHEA
Method: protein-binding microarray
Form: double-stranded DNA, one strand shown
Sample: in vitro
Tested at: 0.8 µM
Notes: whole 60-bp probe, no competitor
Reading: higher = stronger binding
Shared flanks, not repeated: … GTCTTGATTCGCTTGACGCTGCTG
`TGTACGAAGCTATCACACGTGATTATAGTAGTTAGG` has a fluorescence intensity of 6520 a.u.
The fluorescence intensity of `CTATGAAGAAGAAATCATGTGCTGAGAGTTGCCTTC` is reported as 1150 a.u.
For `TGTACGAAGCTATATAACGTGGTTATAGTAGTTAGG`, the fluorescence intensity was 594 a.u.
`CTACATCGATGTATTCTGATGCAGCCAAAATTGTTC` gave a fluorescence intensity of 503 a.u.
For `GAACTCTCCCCCCCACACGTGATAGCCTTTCTTTAG`, the fluorescence intensity was 3830 a.u.

Mixed results
The fold induction of `PhoQ, residues 284 288 289 292 302 303 ASSHFY` is reported as 6.12 (PhoP, residues 12 14 15 18 19 NQGLL (Escherichia coli, UniProt P23836); Sort-seq, item: YFP reporter; E. coli; PhoQ-PhoP variant library, with: 10 µM Mg2+; baseline: high Mg2+ state, higher = stronger signaling).

Repeated from above (sample 3):
`CTACATCGATGTATTCTGATGCAGCCAAAATTGTTC` gave a fluorescence intensity of 503 a.u.
For `GAACTCTCCCCCCCACACGTGATAGCCTTTCTTTAG`, the fluorescence intensity was 3830 a.u.
